Measured values pooled from the literature.
Each numbered part is a random draw from the data of one study; scales do not carry over between parts. ± marks the error that the study gave.

Sequences of proteins named here, by UniProt entry; tags and fusion partners are left off. Residues count along the entry.
UniProt Q9JKC1, 24-597 limits assumed: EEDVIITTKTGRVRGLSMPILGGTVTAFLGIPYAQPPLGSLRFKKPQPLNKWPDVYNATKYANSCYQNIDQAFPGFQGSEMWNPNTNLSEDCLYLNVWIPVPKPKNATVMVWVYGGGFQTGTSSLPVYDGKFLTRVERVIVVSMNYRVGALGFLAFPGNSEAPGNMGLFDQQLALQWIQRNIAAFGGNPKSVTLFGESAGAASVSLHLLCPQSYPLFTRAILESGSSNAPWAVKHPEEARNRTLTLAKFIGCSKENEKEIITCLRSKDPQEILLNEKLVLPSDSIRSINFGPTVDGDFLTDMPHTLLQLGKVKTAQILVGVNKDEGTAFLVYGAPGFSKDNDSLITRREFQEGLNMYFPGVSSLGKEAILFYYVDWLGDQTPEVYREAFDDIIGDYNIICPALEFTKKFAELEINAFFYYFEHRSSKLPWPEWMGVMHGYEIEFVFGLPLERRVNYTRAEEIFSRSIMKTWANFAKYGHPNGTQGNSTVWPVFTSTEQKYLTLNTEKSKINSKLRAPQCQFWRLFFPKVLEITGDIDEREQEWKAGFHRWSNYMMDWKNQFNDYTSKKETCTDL
UniProt P19111, 20-533 limits assumed: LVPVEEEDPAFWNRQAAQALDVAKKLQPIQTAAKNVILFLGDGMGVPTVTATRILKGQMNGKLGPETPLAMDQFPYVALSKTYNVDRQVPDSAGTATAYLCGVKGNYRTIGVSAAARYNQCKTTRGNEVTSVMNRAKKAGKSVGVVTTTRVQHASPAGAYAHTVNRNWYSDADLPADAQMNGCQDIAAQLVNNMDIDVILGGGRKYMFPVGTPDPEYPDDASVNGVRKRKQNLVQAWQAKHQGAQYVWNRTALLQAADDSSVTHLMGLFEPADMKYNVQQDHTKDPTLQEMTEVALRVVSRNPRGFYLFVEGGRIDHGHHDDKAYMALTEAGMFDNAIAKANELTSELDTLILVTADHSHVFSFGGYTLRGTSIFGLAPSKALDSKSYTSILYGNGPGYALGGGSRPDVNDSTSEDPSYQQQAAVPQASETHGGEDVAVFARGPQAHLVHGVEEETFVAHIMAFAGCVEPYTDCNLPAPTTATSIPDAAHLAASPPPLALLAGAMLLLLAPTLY

Block 1 — organism: SARS-CoV-2; cell line: Vero; tested at: 10 µM
| Structure (SMILES) | log viral titre |
| --- | --- |
| COc1cc(C2C(C#N)=C(N)Oc3c2c(C)nn3-c2ccc(Cl)cc2)ccc1O (stereo not drawn) | 5.59 |
| Cc1nn(-c2ccc(Cl)cc2)c2c1C(c1cc(Cl)ccc1Cl)C(C#N)=C(N)O2 (stereo not drawn) | 5.74 |
| CCOc1ccc(C2C(C#N)=C(N)Oc3c2c(C)nn3-c2ccc(Cl)cc2)cc1 (stereo not drawn) | 5.41 |

Further values, each from its own experiment
| SMILES | target | assay | test system | conditions | IC50 [nM] |
| --- | --- | --- | --- | --- | --- |
| C[C@H](NC(=O)[C@@H](c1cccnc1)N(C(=O)CC#N)c1ccc(-c2ccccc2)cc1)c1ccccc1 | Replicase polyprotein 1ab, main protease (rep, Severe acute respiratory syndrome coronavirus 2, UniProt P0DTD1) | enzyme activity, inhibitor | – | – | 500 |
| COP(=O)(OC)Oc1ccc([N+](=O)[O-])cc1Cl | Bche (Rattus norvegicus, UniProt Q9JKC1) | inhibitor | rat, postnatal day 12, rat serum | – | 57 |
| COc1ccccc1N1CC2=C(C1=O)C(c1ccccc1O)NC(=O)N2 (stereo not drawn) | ALPI (Bos taurus, UniProt P19111) | enzyme activity | – | pH 9.5, together with: p-nitrophenyl phosphate 0.5 mM | 2130 ± 34 |

For quick reference, copied from above (further values, each from its own experiment):
| SMILES | target | assay | test system | conditions | IC50 [nM] |
| --- | --- | --- | --- | --- | --- |
| COP(=O)(OC)Oc1ccc([N+](=O)[O-])cc1Cl | Bche (Rattus norvegicus, UniProt Q9JKC1) | inhibitor | rat, postnatal day 12, rat serum | – | 57 |
